Measured values pooled from the literature.
Every numbered part comes from another study and shows a few of its results, in no order. Changes are numbered by the printed parent chain.

Series 1
Target: CCNB3, cyclin fold, Cln2 fusion (human)
Technique: yeast growth competition, sequencing
Sample: yeast
Notes: weak parent motif
Relative to: not given
Reading: higher = stronger binding
Starting sequence: INSM1 docking peptide (human); PKAIRKLHFEDEV; partner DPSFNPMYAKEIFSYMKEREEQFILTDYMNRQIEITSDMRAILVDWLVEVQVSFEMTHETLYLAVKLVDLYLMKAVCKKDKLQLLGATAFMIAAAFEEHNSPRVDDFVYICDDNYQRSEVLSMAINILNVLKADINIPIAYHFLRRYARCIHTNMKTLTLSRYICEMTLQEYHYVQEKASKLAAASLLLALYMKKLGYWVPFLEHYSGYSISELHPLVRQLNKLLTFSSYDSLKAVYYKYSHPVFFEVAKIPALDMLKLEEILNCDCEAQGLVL
Change | normalised enrichment score
PKAIRKGHFEDEV [L7G] | 0.00641
PKAIRNLHFEDEV [K6N] | 0.432
PKAIRKLHWEDEV [F9W] | 0.528
PKAIRQLHFEDEV [K6Q] | 0.74
PKAIRILHFEDEV [K6I] | 0.504
PFAIRKLHFEDEV [K2F] | 0.56
PKAIRKEHFEDEV [L7E] | -0.000781
PKAIRKLHAEDEV [F9A] | -0.491
PKTIRKLHFEDEV [A3T] | 0.246
PKAIRKLHFEDRV [E12R] | 0.468
PKAIRKQHFEDEV [L7Q] | -0.181
PKAIRKLHFEDNV [E12N] | 0.329
PKDIRKLHFEDEV [A3D] | -0.109
PKAIRKLWFEDEV [H8W] | 0.00561
PKCIRKLHFEDEV [A3C] | 1.14
PKAIRKLHFEKEV [D11K] | 0.358
PKAIRKLHMEDEV [F9M] | 0.038
PKAIRKLHFEFEV [D11F] | 0.664
PKAIRKVHFEDEV [L7V] | 0.167
PKAIRKFHFEDEV [L7F] | -0.192

Series 2
Target: CEP164, C-terminal peptide (human)
Technique: DHFR complementation, deep sequencing
Sample: yeast
Notes: single substitutions, model-inferred values
Relative to: wild type
Reading: higher = weaker binding
Starting sequence: PDZK1, PDZ domain 2 (human); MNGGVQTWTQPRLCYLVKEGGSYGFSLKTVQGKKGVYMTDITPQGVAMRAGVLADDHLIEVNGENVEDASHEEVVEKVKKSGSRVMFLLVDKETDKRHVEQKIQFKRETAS; partner HNRVKVYRF
Change | binding free energy change
N62M | 1.07 kcal/mol
A110R | -0.134 kcal/mol
G45S | 0.373 kcal/mol
R12M | 0.671 kcal/mol
D95C | -0.102 kcal/mol
D40Q | 0.492 kcal/mol
K18E | 0.487 kcal/mol
V17Y | 0.174 kcal/mol
A110T | -0.115 kcal/mol
V78K | 1.44 kcal/mol
V30S | 0.0437 kcal/mol
M38A | 1 kcal/mol
V5P | -0.051 kcal/mol
H71G | -0.646 kcal/mol
G21D | 0.00755 kcal/mol
F105D | -0.145 kcal/mol

Series 3
Target: Sal-like protein 4, full length isoform B (SALL4, Homo sapiens, UniProt Q9UJQ4-2, residues 1-616)
Technique: universal PBM
Molecule type: double-stranded DNA, one strand shown
Sample: in vitro
Tested at: not given
Notes: 8-mer, flanks averaged, mean of replicates
Reading: higher = stronger binding
Strand | E-score
GCGAAAAC | -0.104
AGGCACCA | -0.158
AATAGCAC | -0.0499
TAAGTGCA | 0.0971
GAAAGTCA | 0.0735
CCGAAATA | 0.322
CGACTAAC | -0.0188
AAACTTAC | 0.204
ATGGGAGG | -0.0311
AACACCGC | -0.185
AGATTGAT | 0.0764
AATTATCC | 0.297
CTGTGAAA | 0.0845
AAAGGACC | -0.226
CCCAAGCC | -0.31
AGCAGAGA | -0.113
CAAATTTG | 0.117
ACCGGTTA | -0.0714
CATTCCAC | 0.0969
CATAGAAG | 0.164
AAATGTGT | 0.244
GCACCCAC | -0.277

Further values, each from its own experiment
Substance | target | test | test system | conditions | how to read | endpoint | value
PhoQ, residues 284 288 289 292 302 303 DDMDFR | PhoP, residues 12 14 15 18 19 NHFRA (Escherichia coli, UniProt P23836) | Sort-seq, measured: YFP reporter | E. coli | PhoQ-PhoP variant library, with: 10 µM Mg2+ | relative to: high Mg2+ state, higher = stronger signaling | fold induction | 1.97
